Assay results pooled from the literature.
Numbered parts are unrelated; each lists some results of a single study. Substitutions count along the parent as printed.

Series 1 — technique: competition protein-binding microarray; form: double-stranded DNA, one strand shown; matrix: in vitro; concentration: 2 µM; added: Pho4 competitor, 0.05 µM; direction: higher = stronger binding
Target: Centromere-binding protein 1, full length, His-tagged (CBF1, Saccharomyces cerevisiae, UniProt P17106, residues 1-351)
Chain of UniProt P17106 (whole entry, looked up): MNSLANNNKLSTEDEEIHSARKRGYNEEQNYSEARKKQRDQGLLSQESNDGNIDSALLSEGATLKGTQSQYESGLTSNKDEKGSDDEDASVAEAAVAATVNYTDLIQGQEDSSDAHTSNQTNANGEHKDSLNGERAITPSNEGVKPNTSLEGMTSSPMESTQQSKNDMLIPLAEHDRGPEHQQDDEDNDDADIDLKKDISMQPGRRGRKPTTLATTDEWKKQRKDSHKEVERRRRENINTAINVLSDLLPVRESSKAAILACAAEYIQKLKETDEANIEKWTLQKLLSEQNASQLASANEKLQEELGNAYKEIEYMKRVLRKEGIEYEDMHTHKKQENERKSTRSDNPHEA
Setting: whole 60-bp probe, lowest competitor level
Oligonucleotide | fluorescence intensity [a.u.]
ATGGGGGCATAATCGCACGATGTGCAAGCTGAGTGTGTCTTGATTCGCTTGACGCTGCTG | 94.3
GTACGGGTGGACGACCACGTGCCGACTATACGCTATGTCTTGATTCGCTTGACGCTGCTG | 2160
CGGGGTTAAGTTTGGCGAGTGGGTGGCTTGCAGCAGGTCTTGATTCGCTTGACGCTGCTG | 68
TGCGCAACAACTTGGTTAGTGGGTGTATGTCTAGAAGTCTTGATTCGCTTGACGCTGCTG | 66.3
GAACAATGGAATAAGCTCGTGAGATTCCTTAACTTTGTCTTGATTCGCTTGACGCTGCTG | 84.1
TGGTGCACTATCCATTTCGTGCTTTTTGGTTATTGTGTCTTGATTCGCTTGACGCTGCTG | 74
CCGAAAAGGGCCCATCACGGCACATCTGAAGAAAAGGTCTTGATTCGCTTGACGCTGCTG | 67.5
AATCATGGAATCCATCACGTGGTCGCAACTGGGGATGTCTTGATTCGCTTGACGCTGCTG | 5640
ATTATTTCTATCGGCCACGTGTTGATTGGGCTTAATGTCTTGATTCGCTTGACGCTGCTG | 862
CATACCCAACCTTTTCACGTGCCTTAAGATATTTGTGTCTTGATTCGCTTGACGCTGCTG | 1180
GATTTCTTAGCCCATCACGTGCTAACTTTTTGGAATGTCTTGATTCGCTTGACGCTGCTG | 6060
GTCTTGTCTCATTGAATTGTGGGTGTCCCCACTTCAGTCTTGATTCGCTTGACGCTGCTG | 89.8
GTCAACCGATTGGATCAGGTGAGGAAGTACTCAGCGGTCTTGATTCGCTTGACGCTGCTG | 226
CATCATCGCATCTTACAGATGTCCCGGTTTCACTTTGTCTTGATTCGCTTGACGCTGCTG | 68.8
ACACTTTTGGCTCAACTCGTGTGGACAAAGCGATCTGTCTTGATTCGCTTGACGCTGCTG | 69.9
AGAATGTCCCCTGTACACGTGGCAGATTGGCTGAAAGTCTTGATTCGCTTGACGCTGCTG | 1030
ATCATAACGGAGCGAACCGTGCCGAAGATGTCAAGAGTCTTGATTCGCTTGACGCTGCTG | 63.9
CTTTCCCGATCTTTTCACGTGTCCTTAGCACATTTGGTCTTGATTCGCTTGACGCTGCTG | 947
CTTTGCCGAACCCATCACGGCATAACCTGCAGAATAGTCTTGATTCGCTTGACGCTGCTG | 70.8
GAAGTATTTTTTGCGAACGTGGAAGTATTTCACCCAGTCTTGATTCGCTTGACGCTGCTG | 94.9
AAAGCGGTAATTTGTCACTGCACTTCACATATCTATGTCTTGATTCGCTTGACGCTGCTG | 74
TCTTAAAACGAGGTTCACGTGTAACCTTGGTTGATGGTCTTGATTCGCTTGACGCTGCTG | 1180
CGACGAAGTACTGGACACGTTCCCTTCAAACATCAAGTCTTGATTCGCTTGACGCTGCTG | 81.8
CATACCCAACCTTGAATCGTGGGTGAAGATATTTGTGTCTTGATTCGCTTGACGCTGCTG | 67.6
TGCGCAACAACTTTTCACGTGTCCTTATGTCTAGAAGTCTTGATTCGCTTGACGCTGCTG | 1350

Series 2 — technique: protein-binding microarray; form: double-stranded DNA, one strand shown; matrix: in vitro; concentration: 2540 nM top; setting: 60-bp whole probe; added: salmon DNA 0.4 mg/ml; baseline: random background probes; direction: higher = stronger binding; constant ends, left off below: GCCTAGCAC … GTCTTGATTCGCTTGACGCTGCTG
Target: Interferon regulatory factor 3, full length, phosphomimetic (IRF3, Homo sapiens, UniProt Q14653, residues 1-427, S386D/S396D/S398D/S402D/T404D/S405D)
Chain of UniProt Q14653 (whole entry, unmodified, looked up): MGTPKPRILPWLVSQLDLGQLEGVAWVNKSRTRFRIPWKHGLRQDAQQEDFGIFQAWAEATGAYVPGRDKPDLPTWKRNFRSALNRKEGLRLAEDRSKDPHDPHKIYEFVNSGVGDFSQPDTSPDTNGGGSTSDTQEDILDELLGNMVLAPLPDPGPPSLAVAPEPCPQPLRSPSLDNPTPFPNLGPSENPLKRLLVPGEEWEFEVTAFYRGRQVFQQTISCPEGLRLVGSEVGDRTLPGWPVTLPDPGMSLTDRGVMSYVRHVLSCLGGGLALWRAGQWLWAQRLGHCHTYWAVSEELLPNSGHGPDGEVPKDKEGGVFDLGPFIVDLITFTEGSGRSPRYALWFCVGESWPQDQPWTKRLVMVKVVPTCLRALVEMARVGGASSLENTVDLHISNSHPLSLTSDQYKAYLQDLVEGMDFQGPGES
Oligonucleotide | fitted relative affinity
TTACGTTTCGACTATCGGTTAGTGCTA | 2.38 z-score
TCAAAAATCTCAATGGGACTGTGCTAG | -0.397 z-score
TTAGGTATCCGTATCGGTTAGTGCTAG | 4.88 z-score
TTAGGTATCGGGATCGGTTAGTGCTAG | 1.93 z-score
TTTGATCTCAGTATCGATTAGTGCTAG | 1.22 z-score
GACGGTATCGGGACTCGGGACGTGCTA | 1.55 z-score
GGCAGGCTTGCCAGTTCCCCGTGCTAG | -0.803 z-score
GACGGTTTCTGACTGGGGACGTGCTAG | 2.33 z-score
TCATTTTTCCCCTGCACACTGTGCTAG | 1.9 z-score
TTAGGTATCCTTCTCTTTTAGTGCTAG | 6.86 z-score
GACGGACTGCACTATCGGGACGTGCTA | -0.221 z-score
TTAGGTCTCCGACTGGGTTAGTGCTAG | 0.245 z-score
TTAGATATCAGTTACGATTAGTGCTAG | 1.04 z-score
GACGGTTTCCTTTCTCTGACGTGCTAG | 12 z-score
CAAAACATCATTGTCATATAGTGCTAG | 0.796 z-score
GAAGATATCAGTTTCGAGACGTGCTAG | 3.44 z-score
TTAGAACTGGGGTATCGGTTAGTGCTA | 0.215 z-score
TTAGGACTGGATTTCGGTTAGTGCTAG | 0.857 z-score
TTAGATATCAGTATCGATAAGTGCTAG | 1.73 z-score
TGTGCATGTGTGTTTTCTGCGTGCTAG | -0.2 z-score

Series 3 — technique: DHFR PCA, deep sequencing; matrix: yeast; added: (+)-ABA 0.0091 µM; baseline: wild-type fitted maximum; direction: higher = stronger binding
Target: ABI1, truncated, D143A, DHFR fusion (Arabidopsis thaliana)
Setting: methotrexate growth selection, single substitutions
Starting sequence: PYL1, truncated, DHFR fusion (Arabidopsis thaliana); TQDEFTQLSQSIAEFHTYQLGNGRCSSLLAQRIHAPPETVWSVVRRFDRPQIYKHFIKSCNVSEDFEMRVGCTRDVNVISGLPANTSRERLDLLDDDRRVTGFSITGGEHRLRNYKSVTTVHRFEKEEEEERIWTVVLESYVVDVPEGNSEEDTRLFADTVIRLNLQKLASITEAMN; partner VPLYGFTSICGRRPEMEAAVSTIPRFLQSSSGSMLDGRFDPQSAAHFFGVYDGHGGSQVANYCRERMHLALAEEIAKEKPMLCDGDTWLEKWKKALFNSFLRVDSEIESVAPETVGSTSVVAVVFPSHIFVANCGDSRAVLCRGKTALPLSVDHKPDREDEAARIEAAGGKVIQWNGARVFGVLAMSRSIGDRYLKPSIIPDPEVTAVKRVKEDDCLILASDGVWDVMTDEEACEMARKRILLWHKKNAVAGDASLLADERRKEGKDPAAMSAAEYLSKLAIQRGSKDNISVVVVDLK
Change | relative binding score
G108N | -5.13%
A35C | 2.52%
V100C | 3.99%
I162K | 4.7%
V137T | 5.08%
S27A | 0.187%
F103I | -5.69%
E130W | 0.0605%
M68C | 7.32%
E38N | -0.237%
S26K | -2.27%
L169C | 0.0236%
E128I | -8.53%

Series 4 — target: CCND2, cyclin fold, Cln2 fusion (human); technique: yeast growth competition, sequencing; matrix: yeast; setting: weak parent motif; baseline: not given; direction: higher = stronger binding
Starting sequence: SAMHD1 docking peptide (human); ASKSRVQLFKDDP
Change | normalised enrichment score
ASKGRVQLFKDDP [S4G] | 0.0274
ASKSRVQMFKDDP [L8M] | 0.0468
ASKSKVQLFKDDP [R5K] | 0.387
ASKSRPQLFKDDP [V6P] | -0.222
ASKKRVQLFKDDP [S4K] | -0.0469
ASKSRVQLFKFDP [D11F] | 0.27
ASKSRTQLFKDDP [V6T] | 0.183
ASKSRVQLFCDDP [K10C] | 0.429
ASKSMVQLFKDDP [R5M] | -0.135
ASKSRGQLFKDDP [V6G] | 0.221
ASKSRVQLFPDDP [K10P] | 0.0977
ASKSRVQLQKDDP [F9Q] | 0.0388
ASKSRVQSFKDDP [L8S] | -0.0934
ASKSRVPLFKDDP [Q7P] | 0.146
ASKSYVQLFKDDP [R5Y] | -0.0657
ASKSEVQLFKDDP [R5E] | 0.171
ASKSRVQLFSDDP [K10S] | 0.385
ASFSRVQLFKDDP [K3F] | 0.275
ASKSRVQLYKDDP [F9Y] | -0.131
AWKSRVQLFKDDP [S2W] | 0.195
ASKSRVQPFKDDP [L8P] | 0.383
ASKSRVQLFKPDP [D11P] | 0.444

Series 5 — technique: universal PBM; form: double-stranded DNA, one strand shown; matrix: in vitro; concentration: 600 nM; direction: higher = stronger binding
Target: Sal-like protein 4, full length isoform A (SALL4, Homo sapiens, UniProt Q9UJQ4, residues 1-1053)
Chain of UniProt Q9UJQ4 (whole entry, looked up): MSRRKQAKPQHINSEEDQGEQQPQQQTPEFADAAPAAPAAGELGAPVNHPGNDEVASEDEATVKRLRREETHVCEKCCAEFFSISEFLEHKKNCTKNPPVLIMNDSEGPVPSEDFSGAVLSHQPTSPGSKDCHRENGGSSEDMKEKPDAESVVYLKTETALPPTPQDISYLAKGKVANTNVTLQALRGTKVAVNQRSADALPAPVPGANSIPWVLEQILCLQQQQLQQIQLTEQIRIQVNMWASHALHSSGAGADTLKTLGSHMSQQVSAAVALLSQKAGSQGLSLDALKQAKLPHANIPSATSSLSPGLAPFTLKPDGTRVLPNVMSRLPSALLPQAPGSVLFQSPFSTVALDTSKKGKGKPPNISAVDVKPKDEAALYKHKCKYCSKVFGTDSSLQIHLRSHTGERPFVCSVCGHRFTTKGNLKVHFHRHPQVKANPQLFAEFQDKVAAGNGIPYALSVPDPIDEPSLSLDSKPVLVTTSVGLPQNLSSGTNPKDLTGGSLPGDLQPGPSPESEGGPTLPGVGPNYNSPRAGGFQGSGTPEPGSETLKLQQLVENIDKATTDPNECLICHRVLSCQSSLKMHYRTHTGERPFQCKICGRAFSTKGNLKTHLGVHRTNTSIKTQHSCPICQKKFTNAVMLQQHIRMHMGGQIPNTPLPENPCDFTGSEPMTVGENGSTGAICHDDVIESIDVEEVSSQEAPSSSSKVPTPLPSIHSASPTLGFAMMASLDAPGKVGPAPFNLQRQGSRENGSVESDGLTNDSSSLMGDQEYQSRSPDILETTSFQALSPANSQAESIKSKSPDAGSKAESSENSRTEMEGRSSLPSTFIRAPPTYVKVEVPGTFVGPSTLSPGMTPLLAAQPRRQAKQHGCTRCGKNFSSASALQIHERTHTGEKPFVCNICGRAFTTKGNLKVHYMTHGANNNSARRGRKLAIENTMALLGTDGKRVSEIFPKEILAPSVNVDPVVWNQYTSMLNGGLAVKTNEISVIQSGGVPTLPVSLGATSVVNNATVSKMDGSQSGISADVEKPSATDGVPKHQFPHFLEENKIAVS
Setting: 8-mer, flanks averaged, mean of replicates
Oligonucleotide | E-score
AGTAAGTG | 0.0353
AGAAAATA | 0.323
GCCGCGCA | -0.363
AAGGGTTG | 0.0941
AACCATGG | -0.0495
ATGATGGA | 0.109
CCTCAGAG | -0.314
AAGACGCC | -0.259
CCGGAGAG | -0.271
ACAGTACG | 0.0274
TACCCGGA | -0.145
CTACTTCA | 0.0306
AATGATCC | 0.111
ATAACGGA | 0.299
CACCTCAG | -0.17
ATGCGACC | -0.0128
ACTGCCTG | -0.126
TAAGCATA | 0.366
AGCCAACG | -0.0267
AGCAGGAT | -0.0442
ACGAAAAT | 0.305
CGTTATTC | 0.0839
CGTTCCGA | -0.187
GTGCCGCA | -0.134
AATGCGAA | 0.204

Series 6 — target: ATF1, bZIP domain (human); technique: DHFR protein complementation; matrix: yeast; baseline: wild-type JUN-FOS pair; direction: higher = stronger binding
Setting: single substitutions, most at no-binding floor
Starting sequence: JUN, bZIP domain (human); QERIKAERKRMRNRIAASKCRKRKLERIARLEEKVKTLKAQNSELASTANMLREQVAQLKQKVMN; partner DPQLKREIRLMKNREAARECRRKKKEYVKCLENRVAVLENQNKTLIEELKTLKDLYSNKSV
Change | binding fitness
N42G | -1.53 natural log
V56L | -1.51 natural log
E44G | -1.54 natural log
Q41E | -1.44 natural log
Q41W | -1.51 natural log
A57W | -1.39 natural log
S43W | -1.52 natural log
N42M | -1.47 natural log
Q55G | -1.54 natural log
L31T | -1.47 natural log
K39M | -1.45 natural log
A46L | -1.45 natural log
A29Y | -1.41 natural log
A40G | -1.54 natural log
T37N | -1.53 natural log
T48W | -1.43 natural log
K36P | -1.5 natural log
L45T | -1.54 natural log
A29F | -1.49 natural log
Q55M | -1.5 natural log
S43L | -1.51 natural log
E44K | -1.49 natural log
L38H | -1.52 natural log

A few entries again (series 5):
Oligonucleotide | E-score
GCCGCGCA | -0.363
AAGGGTTG | 0.0941
AACCATGG | -0.0495
ATGATGGA | 0.109
CCTCAGAG | -0.314
AAGACGCC | -0.259
CCGGAGAG | -0.271
ACAGTACG | 0.0274
TACCCGGA | -0.145
CTACTTCA | 0.0306
AATGATCC | 0.111
ATAACGGA | 0.299
CACCTCAG | -0.17
ATGCGACC | -0.0128
ACTGCCTG | -0.126
TAAGCATA | 0.366
AGCCAACG | -0.0267
AGCAGGAT | -0.0442
ACGAAAAT | 0.305
CGTTATTC | 0.0839
